Results gathered from unrelated publications.
Each numbered part is a random draw from the data of one study; scales do not carry over between parts.

Series 1
Target: Sal-like protein 4, full length isoform A (SALL4, Homo sapiens, UniProt Q9UJQ4, residues 1-1053)
Chain of UniProt Q9UJQ4 (whole entry, looked up): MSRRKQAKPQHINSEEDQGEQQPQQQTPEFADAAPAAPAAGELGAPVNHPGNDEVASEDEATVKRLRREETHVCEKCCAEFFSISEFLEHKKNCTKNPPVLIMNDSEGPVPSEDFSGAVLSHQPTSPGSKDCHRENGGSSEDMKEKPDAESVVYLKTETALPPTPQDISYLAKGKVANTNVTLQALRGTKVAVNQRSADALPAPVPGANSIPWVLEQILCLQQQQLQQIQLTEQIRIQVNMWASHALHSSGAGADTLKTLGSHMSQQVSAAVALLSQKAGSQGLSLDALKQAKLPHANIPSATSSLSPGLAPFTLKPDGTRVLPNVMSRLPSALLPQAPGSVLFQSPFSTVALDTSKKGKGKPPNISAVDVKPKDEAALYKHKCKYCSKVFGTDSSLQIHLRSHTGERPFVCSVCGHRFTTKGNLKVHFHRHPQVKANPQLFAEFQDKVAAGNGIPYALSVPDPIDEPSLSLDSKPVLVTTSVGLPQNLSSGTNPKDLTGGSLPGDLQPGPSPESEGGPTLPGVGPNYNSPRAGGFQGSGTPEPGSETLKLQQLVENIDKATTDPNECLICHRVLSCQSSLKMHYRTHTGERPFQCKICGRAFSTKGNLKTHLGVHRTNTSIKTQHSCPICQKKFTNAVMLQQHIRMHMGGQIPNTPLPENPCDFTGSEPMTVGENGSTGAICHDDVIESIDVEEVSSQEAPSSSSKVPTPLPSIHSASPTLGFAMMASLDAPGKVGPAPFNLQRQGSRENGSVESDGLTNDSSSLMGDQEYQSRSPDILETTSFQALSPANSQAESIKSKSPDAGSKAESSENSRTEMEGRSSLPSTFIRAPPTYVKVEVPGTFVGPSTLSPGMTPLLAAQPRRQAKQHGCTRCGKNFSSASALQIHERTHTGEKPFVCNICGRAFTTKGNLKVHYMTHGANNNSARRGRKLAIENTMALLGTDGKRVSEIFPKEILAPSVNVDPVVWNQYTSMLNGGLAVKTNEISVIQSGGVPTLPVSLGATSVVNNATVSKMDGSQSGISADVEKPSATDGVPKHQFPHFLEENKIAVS
Technique: universal PBM
Form: double-stranded DNA, one strand shown
Matrix: in vitro
Concentration: 600 nM
Setting: 8-mer, flanks averaged, mean of replicates
Reading: higher = stronger binding
| Strand | E-score |
| --- | --- |
| AGGTCGAG | -0.0388 |
| AAAGGCAC | -0.0494 |
| AAAGGCCG | -0.216 |
| AAAGGTGG | -0.0096 |
| GGTGTGCA | -0.255 |
| ATTTTGGC | 0.2 |
| ATACGGGC | -0.0927 |
| CGTGGGTC | -0.239 |
| ACTGGCAG | -0.199 |
| ACGAGAGG | -0.104 |
| TCAGCAAA | 0.172 |
| AACCTGGA | -0.0392 |
| CAACCGGG | -0.312 |
| ATTGAAGA | 0.158 |
| CGAAGAGC | -0.092 |
| ATACGGGA | -0.059 |
| ACACCGAA | -0.0855 |
| GCACAATA | 0.15 |
| CTTATCAA | 0.291 |
| CGCGCCAC | -0.22 |
| CCGCAAAG | -0.106 |
| GACTGATC | 0.00806 |
| GCCTCAGC | -0.204 |
| CGATTTAG | 0.188 |
| GGCTATTA | 0.203 |

Series 2
Target: Runt-related transcription factor 3, Runt domain (RUNX3, Homo sapiens, UniProt Q13761, residues 53-186)
Chain of UniProt Q13761 (53-186, looked up): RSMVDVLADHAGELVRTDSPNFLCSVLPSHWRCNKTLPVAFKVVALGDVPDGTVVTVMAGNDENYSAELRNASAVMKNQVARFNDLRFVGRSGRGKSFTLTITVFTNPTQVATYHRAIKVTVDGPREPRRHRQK
Technique: protein-binding microarray
Form: hairpin DNA
Matrix: in vitro
Concentration: not given
Setting: whole hairpin DNA, median over replicate spots
Relative to: not given
Reading: higher = stronger binding
| Strand | median fluorescence [a.u.] |
| --- | --- |
| GAGGCCCATCCGCAACAGCCTCCTGGCTGTTGCGGATGGGCCTCACACTC | 5030 |
| CTCAGTTTTGTGGGCTGGACTCCTGTCCAGCCCACAAAACTGAGACACTC | 4080 |
| GAGGCCTGTTGCGGGTGGCCTCCTGGCCACCCGCAACAGGCCTCACACTC (5mC at 30) | 5890 |
| CTCAGTTCAGTGGGCTGGACTCCTGTCCAGCCCACTGAACTGAGACACTC | 3920 |
| GAGGCCTGCCGCGGTTGGCCTCCTGGCCAACCGCGGCAGGCCTCACACTC (5mC at 9) | 5660 |
| GAGGCCTTTTGCGGTTGGCCTCCTGGCCAACCGCAAAAGGCCTCACACTC | 8760 |
| GAGGCCTGTGGCGGTTGGCCTCCTGGCCAACCGCCACAGGCCTCACACTC (5mC at 35) | 5960 |
| GAGGCCTGTTGCGGTTGGCCTCCTGGCCAACCGCAACAGGCCTCACACTC | 8490 |
| GAGGCCTGTTGTGGGTGGCCTCCTGGCCACCCACAACAGGCCTCACACTC | 4810 |
| GAGGCCTGTCGCGGTCGGCCTCCTGGCCGACCGCGACAGGCCTCACACTC | 5980 |
| GAGGCCTGTTACGGTTGGCCTCCTGGCCAACCGTAACAGGCCTCACACTC | 4360 |
| GAGGCCTGTTGTGGTCGGCCTCCTGGCCGACCACAACAGGCCTCACACTC (5mC at 16) | 5360 |
| GAGGCCTGTTGCTGTTGGCCTCCTGGCCAACAGCAACAGGCCTCACACTC | 4860 |
| CTCAGTTCTGTGGGCGGGACTCCTGTCCCGCCCACAGAACTGAGACACTC | 4340 |
| GAGGCCCACGCGCAACAGCCTCCTGGCTGTTGCGCGTGGGCCTCACACTC | 5540 |
| GAGGCCCAACCGCAAGAGCCTCCTGGCTCTTGCGGTTGGGCCTCACACTC (5mC at 29) | 9060 |
| CTCAGTTCGGTGGGCTGGACTCCTGTCCAGCCCACCGAACTGAGACACTC | 4420 |
| GAGGCCTGTTGCGCGTGGCCTCCTGGCCACGCGCAACAGGCCTCACACTC | 5480 |
| GAGGCCTCGCGCGGTTGGCCTCCTGGCCAACCGCGCGAGGCCTCACACTC (5mC at 8) | 4950 |
| CTCAGTACTGTGGGCTGGACTCCTGTCCAGCCCACAGTACTGAGACACTC | 3950 |
| GAGGCCTGTTGTCGTTGGCCTCCTGGCCAACGACAACAGGCCTCACACTC (5mC at 13) | 4540 |
| GAGGCCTGTTGTGGTCGGCCTCCTGGCCGACCACAACAGGCCTCACACTC | 6440 |
| GAGGCCCAACCACAACAGCCTCCTGGCTGTTGTGGTTGGGCCTCACACTC | 5720 |
| GAGGCCTGTCGCGGTTGGCCTCCTGGCCAACCGCGACAGGCCTCACACTC (5mC at 12 32) | 5000 |
| GAGGCCTGTTCGGGTTGGCCTCCTGGCCAACCCGAACAGGCCTCACACTC (5mC at 33) | 4630 |

Series 3
Target: Ras GTPase-activating protein-binding protein 1, full length (G3BP1, Homo sapiens, UniProt Q13283)
Chain of UniProt Q13283 (whole entry, looked up): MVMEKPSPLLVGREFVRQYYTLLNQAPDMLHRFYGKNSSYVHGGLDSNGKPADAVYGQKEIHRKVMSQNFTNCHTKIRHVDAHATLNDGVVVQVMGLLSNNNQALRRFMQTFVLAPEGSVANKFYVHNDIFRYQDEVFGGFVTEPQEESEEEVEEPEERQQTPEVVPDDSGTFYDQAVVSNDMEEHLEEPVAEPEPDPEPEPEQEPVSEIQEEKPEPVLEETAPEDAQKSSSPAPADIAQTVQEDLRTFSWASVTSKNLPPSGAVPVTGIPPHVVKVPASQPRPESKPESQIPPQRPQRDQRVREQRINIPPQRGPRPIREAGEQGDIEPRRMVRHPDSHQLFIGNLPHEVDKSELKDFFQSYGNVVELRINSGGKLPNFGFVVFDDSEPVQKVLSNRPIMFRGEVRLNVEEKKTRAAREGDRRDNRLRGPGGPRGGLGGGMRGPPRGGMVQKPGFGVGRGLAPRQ
Technique: RNA Bind-n-Seq
Form: RNA
Matrix: in vitro
Concentration: 200 nM
Setting: whole 134-nt RNA, ends assumed
Together with: 150 mM KCl
Relative to: input library
Reading: higher = stronger binding
Constant ends, left off below: GGGAGUUCUACAGUCCGACGAUC … UGGAAUUCUCGGGUGUCAAGG
| Strand | log2 enrichment |
| --- | --- |
| AAGUCCUGUGCUACACAUCGUAUGUACCGAAUCGGGGUUUGGGGUUUGGGGUUUGGAAAGUAUUAUGUUACGCCGUUCGGAUCUGCACUU | -0.248 |
| UCCUCAAGUCCUGUGCUACACAUCGUAUGUACCGAAUCGGGGAGGAGGAGGAAAGUAUUAUGUUACGCCGUUCGGAUCUGCACUUCCAGC | -0.355 |
| CUGUGCUACACAUCGUAUGUACCGAAUCGGGGAAAGGGGAAAAAAAGGGGUUUUUUUGGGGAAAGUAUUAUGUUACGCCGUUCGGAUCUG | -0.0569 |
| CUCAAGUCCUGUGCUACACAUCGUAUGUACCGAAUCGGGAAGGAAGGAAGGGGAAAGUAUUAUGUUACGCCGUUCGGAUCUGCACUUCCA | -0.11 |
| CUGUGCUACACAUCGUAUGUACCGAAUCGGUUUUUUUGGGGUUUUUUUGGUUUUUUUGGGGAAAGUAUUAUGUUACGCCGUUCGGAUCUG | -1.16 |
| GUAGAAAUUCAUGUAUAAAUGGAACCAUAUAGUACAUACAUAUCAUACUCUUAGGUCUGGCAAAUAUUUGAGGUUCAUCCAUAUUUUAUA | -1.64 |
| CACAGACAACACGCACCCACACAGACACAGAUGGAAGGGGUUGGGAUGGGGACAGGGUGCACAGCAGGGCGGGGUAGGACCCCAGCCCCU | 1.89 |
| AAGUCCUGUGCUACACAUCGUAUGUACCGAAUCGGGGAAAGGGGAAAGGAAAGGGGAAAGUAUUAUGUUACGCCGUUCGGAUCUGCACUU | 0.32 |
| ACCAUGCAGGUGGGCAUCUUUGGGAAGUGGGGCAAGGGGGGGAUUGGGAGGGGGGUAACACUUUGGGAACAGGUGGUCCCAGGUCGUUUC | 1.31 |
| UGGGAGGUGGAUUUUGUUUAUUUUUUUAGCUCAUUUCCAGUGGUGGGAAUUUUUUUUUAAUAUGUGUCAUGAAUAAAGUUGUUUUUGAAA | -0.162 |

Series 4
Target: Histone acetyltransferase KAT6A, winged helix 2, GST fusion (KAT6A, Homo sapiens, UniProt Q92794, residues 85-181)
Technique: protein binding microarray
Form: double-stranded DNA, one strand shown
Matrix: in vitro
Concentration: not given
Setting: 8-mer, flanks averaged, mean of 2 arrays, mostly near background
Relative to: not given
Reading: higher = stronger binding
Construct (chain): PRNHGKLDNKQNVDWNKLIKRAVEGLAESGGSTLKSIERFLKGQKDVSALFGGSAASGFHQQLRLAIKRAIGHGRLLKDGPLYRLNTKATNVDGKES
| Strand | E-score |
| --- | --- |
| AGCTGCCG | 0.195 |
| AAAAGGTT | 0.0315 |
| CAGGTCGA | 0.153 |
| AATGGTCA | -0.0107 |
| AACTCGGG | 0.0713 |
| ACGGAAAA | -0.083 |
| CACACTGG | 0.0224 |
| TAATTGAA | 0.111 |
| CGTAGCGC | -0.0596 |
| AGGGTTTC | -0.0131 |
| AACACCTC | -0.22 |
| ACGGTAAG | -0.149 |
| TGGAATAA | 0.079 |
| ATTTCCAA | -0.0387 |
| ATAACTCG | 0.0189 |
| ATTACGCC | -0.0653 |
| AGTGCCCG | 0.127 |
| ACTATTCT | -0.0257 |
| AGGATTGC | -0.0364 |
| CACATAGG | -0.176 |
| ACGGGGGG | -0.0597 |
| CCCCATCG | 0.0407 |
| GTCAACAC | 0.123 |
| AATCCCGG | -0.0407 |

Some of these lines once more (series 4):
| Strand | E-score |
| --- | --- |
| CGTAGCGC | -0.0596 |
| AGGGTTTC | -0.0131 |
| AACACCTC | -0.22 |
| ACGGTAAG | -0.149 |
| TGGAATAA | 0.079 |
| ATTTCCAA | -0.0387 |
| ATAACTCG | 0.0189 |
| ATTACGCC | -0.0653 |
| AGTGCCCG | 0.127 |
| ACTATTCT | -0.0257 |
| AGGATTGC | -0.0364 |
